Experimental data gathered from unrelated publications.
Parts stem from different laboratories: compare values within a part only.
Sequence of UniProt O15197 (whole entry, looked up): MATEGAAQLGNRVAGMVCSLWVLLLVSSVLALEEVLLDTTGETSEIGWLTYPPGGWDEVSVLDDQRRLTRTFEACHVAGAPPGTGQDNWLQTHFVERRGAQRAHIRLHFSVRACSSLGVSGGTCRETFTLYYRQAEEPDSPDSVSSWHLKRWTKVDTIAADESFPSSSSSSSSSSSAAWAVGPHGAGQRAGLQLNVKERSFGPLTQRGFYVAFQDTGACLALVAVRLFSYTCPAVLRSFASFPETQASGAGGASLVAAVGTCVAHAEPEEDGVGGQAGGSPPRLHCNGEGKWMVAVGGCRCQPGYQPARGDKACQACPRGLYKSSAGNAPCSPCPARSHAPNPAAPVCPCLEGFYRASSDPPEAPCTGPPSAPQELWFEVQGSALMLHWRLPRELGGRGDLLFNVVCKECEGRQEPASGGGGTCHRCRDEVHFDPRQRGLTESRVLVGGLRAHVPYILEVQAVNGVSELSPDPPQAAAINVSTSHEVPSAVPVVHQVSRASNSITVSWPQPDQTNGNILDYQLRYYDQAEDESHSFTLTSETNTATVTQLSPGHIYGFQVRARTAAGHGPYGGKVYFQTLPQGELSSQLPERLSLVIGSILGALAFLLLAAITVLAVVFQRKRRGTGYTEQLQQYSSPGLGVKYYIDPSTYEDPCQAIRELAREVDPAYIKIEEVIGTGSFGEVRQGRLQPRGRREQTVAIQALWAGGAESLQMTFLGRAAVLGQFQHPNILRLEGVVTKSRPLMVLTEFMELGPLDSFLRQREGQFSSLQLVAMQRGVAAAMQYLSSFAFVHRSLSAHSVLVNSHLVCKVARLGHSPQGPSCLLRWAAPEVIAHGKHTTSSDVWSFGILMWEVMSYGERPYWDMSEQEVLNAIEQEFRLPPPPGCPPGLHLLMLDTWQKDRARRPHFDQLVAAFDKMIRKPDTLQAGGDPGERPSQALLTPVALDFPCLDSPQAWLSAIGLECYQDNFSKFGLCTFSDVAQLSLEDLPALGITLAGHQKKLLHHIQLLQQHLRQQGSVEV
Sequence of UniProt P54760 (whole entry, looked up): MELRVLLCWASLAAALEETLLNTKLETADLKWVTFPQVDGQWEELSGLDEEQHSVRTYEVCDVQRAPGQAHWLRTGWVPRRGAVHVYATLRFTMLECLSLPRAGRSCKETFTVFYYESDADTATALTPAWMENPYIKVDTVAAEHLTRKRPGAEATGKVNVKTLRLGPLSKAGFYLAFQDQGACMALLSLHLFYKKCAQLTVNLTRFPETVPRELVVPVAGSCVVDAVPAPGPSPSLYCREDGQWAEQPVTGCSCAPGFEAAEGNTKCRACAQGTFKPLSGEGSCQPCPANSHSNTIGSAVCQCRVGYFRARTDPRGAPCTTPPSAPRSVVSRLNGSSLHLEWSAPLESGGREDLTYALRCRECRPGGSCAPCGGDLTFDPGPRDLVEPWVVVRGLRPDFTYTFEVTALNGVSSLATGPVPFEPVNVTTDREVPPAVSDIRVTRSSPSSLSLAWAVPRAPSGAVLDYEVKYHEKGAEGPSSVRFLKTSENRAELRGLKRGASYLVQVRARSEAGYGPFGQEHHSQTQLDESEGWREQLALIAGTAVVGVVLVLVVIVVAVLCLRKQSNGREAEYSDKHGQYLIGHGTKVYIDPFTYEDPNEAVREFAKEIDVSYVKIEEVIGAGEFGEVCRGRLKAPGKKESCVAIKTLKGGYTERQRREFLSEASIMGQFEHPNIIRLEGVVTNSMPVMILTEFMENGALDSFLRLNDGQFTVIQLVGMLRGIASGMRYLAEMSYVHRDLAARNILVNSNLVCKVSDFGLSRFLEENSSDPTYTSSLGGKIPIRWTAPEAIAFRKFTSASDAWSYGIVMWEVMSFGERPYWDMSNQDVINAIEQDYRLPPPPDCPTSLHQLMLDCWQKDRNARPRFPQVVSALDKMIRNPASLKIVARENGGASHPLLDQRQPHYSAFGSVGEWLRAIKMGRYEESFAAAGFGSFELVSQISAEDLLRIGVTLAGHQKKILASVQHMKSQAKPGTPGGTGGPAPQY
Sequence of UniProt O60674 (whole entry, looked up): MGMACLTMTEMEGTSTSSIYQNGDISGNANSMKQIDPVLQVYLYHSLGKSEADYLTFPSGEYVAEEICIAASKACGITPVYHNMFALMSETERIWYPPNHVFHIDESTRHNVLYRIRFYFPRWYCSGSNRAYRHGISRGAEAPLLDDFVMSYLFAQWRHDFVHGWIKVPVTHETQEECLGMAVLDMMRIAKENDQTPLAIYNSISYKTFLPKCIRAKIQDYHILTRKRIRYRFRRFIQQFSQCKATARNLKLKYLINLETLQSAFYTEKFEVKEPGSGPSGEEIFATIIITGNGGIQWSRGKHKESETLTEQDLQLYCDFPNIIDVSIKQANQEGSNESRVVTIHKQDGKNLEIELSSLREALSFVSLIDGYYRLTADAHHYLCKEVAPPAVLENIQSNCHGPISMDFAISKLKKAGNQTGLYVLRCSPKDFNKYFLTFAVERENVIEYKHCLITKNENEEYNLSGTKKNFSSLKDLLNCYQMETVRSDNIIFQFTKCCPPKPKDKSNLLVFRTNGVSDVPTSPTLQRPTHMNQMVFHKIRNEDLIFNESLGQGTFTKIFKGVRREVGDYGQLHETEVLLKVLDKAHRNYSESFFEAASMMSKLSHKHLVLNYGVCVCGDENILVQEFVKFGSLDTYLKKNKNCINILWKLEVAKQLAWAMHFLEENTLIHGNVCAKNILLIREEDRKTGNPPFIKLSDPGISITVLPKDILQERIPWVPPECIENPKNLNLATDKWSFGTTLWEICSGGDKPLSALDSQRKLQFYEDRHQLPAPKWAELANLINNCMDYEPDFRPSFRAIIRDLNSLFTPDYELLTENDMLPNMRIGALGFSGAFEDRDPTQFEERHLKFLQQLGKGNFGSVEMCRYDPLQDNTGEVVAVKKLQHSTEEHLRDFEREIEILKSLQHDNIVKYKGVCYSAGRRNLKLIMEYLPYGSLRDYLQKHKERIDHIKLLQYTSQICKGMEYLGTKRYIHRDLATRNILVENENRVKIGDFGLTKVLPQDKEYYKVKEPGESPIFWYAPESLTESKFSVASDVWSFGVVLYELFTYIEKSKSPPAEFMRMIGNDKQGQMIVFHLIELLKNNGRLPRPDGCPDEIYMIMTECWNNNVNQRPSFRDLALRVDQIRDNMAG
Sequence of UniProt P11802 (whole entry, looked up): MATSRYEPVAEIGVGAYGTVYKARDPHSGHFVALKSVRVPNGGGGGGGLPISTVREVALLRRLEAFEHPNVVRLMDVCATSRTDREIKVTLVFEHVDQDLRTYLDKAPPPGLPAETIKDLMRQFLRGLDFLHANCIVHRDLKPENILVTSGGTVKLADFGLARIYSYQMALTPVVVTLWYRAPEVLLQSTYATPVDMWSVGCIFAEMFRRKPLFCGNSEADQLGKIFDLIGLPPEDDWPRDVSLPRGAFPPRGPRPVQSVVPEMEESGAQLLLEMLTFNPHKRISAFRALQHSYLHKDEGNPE
Sequence of UniProt Q9UQ88 (whole entry, looked up): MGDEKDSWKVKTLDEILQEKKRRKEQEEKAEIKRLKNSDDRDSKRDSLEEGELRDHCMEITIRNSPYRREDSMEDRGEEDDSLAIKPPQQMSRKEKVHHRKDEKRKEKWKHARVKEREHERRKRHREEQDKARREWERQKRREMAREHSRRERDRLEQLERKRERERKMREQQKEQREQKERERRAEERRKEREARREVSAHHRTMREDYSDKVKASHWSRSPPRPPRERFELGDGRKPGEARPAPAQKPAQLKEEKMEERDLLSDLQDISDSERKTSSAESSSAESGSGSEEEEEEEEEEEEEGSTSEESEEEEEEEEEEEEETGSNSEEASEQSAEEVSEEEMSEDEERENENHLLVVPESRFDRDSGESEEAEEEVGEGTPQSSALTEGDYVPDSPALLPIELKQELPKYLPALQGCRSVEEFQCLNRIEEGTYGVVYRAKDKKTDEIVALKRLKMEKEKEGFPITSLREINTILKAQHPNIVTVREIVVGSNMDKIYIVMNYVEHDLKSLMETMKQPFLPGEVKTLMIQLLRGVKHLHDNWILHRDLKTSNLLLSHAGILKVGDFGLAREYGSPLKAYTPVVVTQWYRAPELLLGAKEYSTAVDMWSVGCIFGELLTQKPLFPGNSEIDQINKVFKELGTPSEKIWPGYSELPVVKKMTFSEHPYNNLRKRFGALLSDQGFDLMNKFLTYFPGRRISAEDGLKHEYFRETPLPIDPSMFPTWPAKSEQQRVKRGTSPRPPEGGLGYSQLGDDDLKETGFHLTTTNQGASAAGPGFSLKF

Set 1
Host: human
Sample: microsomes or S9
Tested at: 2 µM
Time: 0.5 h
With `CCCCN(C)Cc1cc(=O)oc2cc(C)c(O)cc12` the remaining compound was 82.5%.
`O=C(O)c1ccc2c(Br)c(O)c(C(=O)O)cc2c1` has a remaining compound of 56.9%.
For `CC1CCCC(C)N1C(=O)c1cc(-c2ccccc2)nn1-c1ncccc1-c1ccccc1` (stereo not drawn), the remaining compound was < 1%.
The remaining compound of `Cn1nc2n(c1=O)CCC(NC(=O)CCC1CCCCC1)CC2` (stereo not drawn) is reported as 77.2%.
For `O=C(c1c(OCC2CC2)cc(=O)n2c1CCOCC2)N1CCN(c2ncccn2)CC1`, the remaining compound was > 99%.
`NC(=O)C1CCC(CNCc2cc3ccccc3s2)CC1` (stereo not drawn) has a remaining compound of 85.1%.
For `O=C(NC1CCc2ccccc21)c1nnn(-c2ccccc2Cl)c1-c1ccncc1` (stereo not drawn), the remaining compound was 3.4%.
`Cc1cc2occ(CC(=O)N3CCOC4(CCCOC4)C3)c2cc1C(C)C` (stereo not drawn) gave a remaining compound of 43.1%.

Set 2
Target: cAMP-dependent protein kinase catalytic subunit alpha (PRKACA, Homo sapiens, UniProt P17612)
Effect on: enzyme activity
Action: inhibitor
Tested at: 0.5 µM
Relative to: control
With `CNC(=O)c1cc(Oc2ccc(NC(=O)Nc3ccc(Cl)c(C(F)(F)F)c3)cc2)ccn1` the remaining activity was 92.6%.
For `COc1ccc(OC)c2c(=S)c3ccccc3[nH]c12`, the remaining activity was 97.5%.
For `CC(C)[C@H](CO)Nc1nc(Nc2cc(N)cc(Cl)c2)c2ncn(C(C)C)c2n1`, the remaining activity was 101%.
The remaining activity of `Cc1cccc(-c2[nH]c(C(C)(C)C)nc2-c2ccc3c(c2)OCO3)n1` is reported as 102%.
The remaining activity of `O=C(O)c1ccc2c3c1cccc3c(=O)n1c3ccccc3nc21` is reported as 99.4%.
The remaining activity of `O=C(CCCc1ccc(-c2ccccc2F)cc1)Nc1ccc(O)cc1` is reported as 99.5%.
The remaining activity of `COc1cc2nccc(Oc3ccc(NC(=S)NC(=O)c4ccccc4C)cc3)c2cc1OC` is reported as 91.8%.
For `CCOC(=O)c1c(C)[nH]c(/C=C2\C(=O)Nc3ccccc32)c1C`, the remaining activity was 97.3%.
`COc1ccc(C(=O)Nc2sc3c(c2C(N)=O)CCCC3)cc1OC` has a remaining activity of 102%.
With `C#Cc1cccc(Nc2ncnc3cc(OCCOC)c(OCCOC)cc23)c1` the remaining activity was 93.3%.
For `Cn1sc(=O)n(Cc2ccccc2)c1=O`, the remaining activity was 105%.
The remaining activity of `OCC(O)CCON=C1C(c2c(O)[nH]c3ccccc23)=Nc2ccccc21` (stereo not drawn) is reported as 89.1%.
With `N#CC(C#N)=C(N)/C(C#N)=C/c1ccc(O)cc1` the remaining activity was 100%.
The remaining activity of `NCCNc1ncc(C(N)=O)c(Nc2cccc(C(F)(F)F)c2)n1` is reported as 98.6%.
For `Cn1c2ccccc2c2c3c(c4c5ccccc5n(CCC#N)c4c21)CNC3=O`, the remaining activity was 83.7%.

Set 3
Target: Calcium/calmodulin-dependent protein kinase type II subunit alpha (CAMK2A, Homo sapiens, UniProt Q9UQM7)
Sequence of UniProt Q9UQM7 (whole entry, looked up): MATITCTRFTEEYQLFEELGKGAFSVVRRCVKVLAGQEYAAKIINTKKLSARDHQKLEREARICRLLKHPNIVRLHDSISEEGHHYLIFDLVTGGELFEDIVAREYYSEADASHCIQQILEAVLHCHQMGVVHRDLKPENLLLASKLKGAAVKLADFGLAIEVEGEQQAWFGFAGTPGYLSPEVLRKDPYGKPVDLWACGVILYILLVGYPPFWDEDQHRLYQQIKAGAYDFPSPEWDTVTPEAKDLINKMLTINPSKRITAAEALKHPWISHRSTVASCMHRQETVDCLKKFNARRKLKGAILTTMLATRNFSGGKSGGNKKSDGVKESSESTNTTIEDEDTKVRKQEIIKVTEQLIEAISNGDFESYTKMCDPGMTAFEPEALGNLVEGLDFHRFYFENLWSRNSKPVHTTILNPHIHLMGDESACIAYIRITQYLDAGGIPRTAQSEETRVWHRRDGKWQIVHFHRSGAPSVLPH
Effect on: enzyme activity
Action: inhibitor
Tested at: 10 µM
With `CC1(C)CC[C@]2(C(=O)O)CCC3=C(CC[C@@H]4[C@@]5(C)C[C@H](O)[C@H](O)[C@@](C)(C(=O)O)[C@@H]5CC[C@@]34C)[C@@H]2C1` the inhibition was 8%.
`CC(C)=CC[C@@H](OC(=O)C(C)C)C1=CC(=O)c2c(O)ccc(O)c2C1=O` has an inhibition of 9%.
`CC(C)CCC[C@@H](C)[C@H]1CC[C@H]2[C@@H]3CCC4=CC(=O)CC[C@]4(C)[C@H]3CC[C@]12C` gave an inhibition of -8%.
`O=C(O)c1ccc(=O)oc1` gave an inhibition of -26%.
`CN1CCC(=C2c3ccccc3CCc3cccnc32)CC1` gave an inhibition of -1%.
`CN[C@@H]1[C@@H](O)[C@@H](O[C@@H]2[C@@H](O)[C@H](O[C@H]3OC(CN)=CC[C@H]3N)[C@@H](N)C[C@H]2N)OC[C@]1(C)O` has an inhibition of -12%.
`O=c1ccc2ccccc2o1` gave an inhibition of -7%.
The inhibition of `CCN[C@H]1C[C@H](C)S(=O)(=O)c2sc(S(N)(=O)=O)cc21` is reported as -8%.
The inhibition of `O=c1c2c(O)cc(O)cc2oc2c(O)ccc(O[C@@H]3O[C@H](CO)[C@@H](O)[C@H](O)[C@H]3O)c12` is reported as 2%.
`CC1CCc2c(N3CCC(O)CC3)c(F)cc3c(=O)c(C(=O)O)cn1c23` (stereo not drawn) has an inhibition of 0%.
For `O=C(O)c1cc2ccccc2[nH]1`, the inhibition was -22%.
With `O=c1c(O[C@@H]2OC[C@@H](O)[C@H](O)[C@H]2O)c(-c2ccc(O)c(O)c2)oc2cc(O)cc(O)c12` the inhibition was -66%.
For `CC(=O)N[C@H](C(=O)O)C(C)C`, the inhibition was 57%.

Set 4
Compound: COc1ccc2c(c1)O[C@H](c1ccc(OC)c(OC)c1)C[C@@H]2NC(=O)C1(c2ccc3c(c2)OC(F)(F)O3)CC1
Technique: competition with immobilised ligand
Tested at: 1 µM
The remaining binding was 100% (AAK1 (Homo sapiens, UniProt Q2M2I8); cell-free assay).
It gave 100% for remaining binding (RAF1 (Homo sapiens, UniProt P04049); cell-free assay).
It gave 100% for remaining binding (MAP4K4 (Homo sapiens, UniProt O95819); cell-free assay).
It gave 85% for remaining binding (EPHB6 (Homo sapiens, UniProt O15197); cell-free assay).
It gave 88% for remaining binding (EPHB4 (Homo sapiens, UniProt P54760); cell-free assay).
The remaining binding was 100% (TNNI3K (Homo sapiens, UniProt Q59H18); cell-free assay).
It gave 92% for remaining binding (MAPK9 (Homo sapiens, UniProt P45984); cell-free assay).
The remaining binding was 93% (Tyrosine-protein kinase ABL1, phosphorylated (ABL1, Homo sapiens, UniProt P00519); cell-free assay).
For STK3 (Homo sapiens, UniProt Q13188); cell-free assay: remaining binding read 100%.
DDR1 (Homo sapiens, UniProt Q08345); cell-free assay — remaining binding: 100%.
Cyclin-dependent kinase 4, with cyclin D1 (CDK4, Homo sapiens, UniProt P11802); cell-free assay — remaining binding: 100%.
It gave 100% for remaining binding (CDK11A (Homo sapiens, UniProt Q9UQ88); binding).
CIT (Homo sapiens, UniProt O14578); cell-free assay — remaining binding: 92%.
MAP3K14 (Homo sapiens, UniProt Q99558); cell-free assay — remaining binding: 100%.
The remaining binding was 98% (Tyrosine-protein kinase JAK2, JH1 (JAK2, Homo sapiens, UniProt O60674); cell-free assay).

Repeated from above (set 4):
The remaining binding was 93% (Tyrosine-protein kinase ABL1, phosphorylated (ABL1, Homo sapiens, UniProt P00519); cell-free assay).
For STK3 (Homo sapiens, UniProt Q13188); cell-free assay: remaining binding read 100%.
DDR1 (Homo sapiens, UniProt Q08345); cell-free assay — remaining binding: 100%.
Cyclin-dependent kinase 4, with cyclin D1 (CDK4, Homo sapiens, UniProt P11802); cell-free assay — remaining binding: 100%.
